Values quoted from earlier work that unrelated publications cite.
Each line is one published result; not all experiments were run side by side. Numbers after ± are the reported error.
Sequence of UniProt P14416 (whole entry, looked up): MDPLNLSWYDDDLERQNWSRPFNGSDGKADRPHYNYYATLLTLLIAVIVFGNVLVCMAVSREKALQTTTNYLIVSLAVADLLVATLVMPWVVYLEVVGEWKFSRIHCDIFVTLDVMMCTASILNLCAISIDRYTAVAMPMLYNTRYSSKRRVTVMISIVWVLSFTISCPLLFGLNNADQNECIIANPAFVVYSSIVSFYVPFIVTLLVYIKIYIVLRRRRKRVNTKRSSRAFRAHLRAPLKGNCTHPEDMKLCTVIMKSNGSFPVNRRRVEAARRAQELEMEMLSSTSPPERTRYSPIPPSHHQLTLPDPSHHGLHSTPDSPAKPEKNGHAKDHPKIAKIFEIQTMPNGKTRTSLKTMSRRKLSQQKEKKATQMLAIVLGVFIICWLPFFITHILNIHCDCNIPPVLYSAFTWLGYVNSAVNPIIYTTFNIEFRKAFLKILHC
Sequence of UniProt P21917 (whole entry, looked up): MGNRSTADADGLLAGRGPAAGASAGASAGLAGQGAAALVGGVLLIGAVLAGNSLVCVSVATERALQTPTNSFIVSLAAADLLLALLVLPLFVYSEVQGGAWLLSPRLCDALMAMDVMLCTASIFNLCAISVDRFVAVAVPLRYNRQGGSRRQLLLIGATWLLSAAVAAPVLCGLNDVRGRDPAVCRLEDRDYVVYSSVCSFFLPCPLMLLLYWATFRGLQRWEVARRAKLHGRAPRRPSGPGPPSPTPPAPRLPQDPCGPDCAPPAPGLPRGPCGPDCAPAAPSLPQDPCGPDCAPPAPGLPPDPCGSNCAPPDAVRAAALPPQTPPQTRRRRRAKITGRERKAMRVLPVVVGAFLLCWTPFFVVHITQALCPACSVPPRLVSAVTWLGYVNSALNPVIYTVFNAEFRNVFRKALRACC

Substance	tested on	assay	system	setting	quantity	value
Cc1cc2nc(N)[nH]c2cc1C	Pseudomonas aeruginosa	biofilm growth, inhibitor	wild type	24 h	IC50	4 µM
C#CCCCC[C@@H](C)C(=O)N(C)[C@H](C(=O)N(C)[C@H](C(=O)N[C@H](C(=O)N(C)[C@@H](C)C(=O)N(C)[C@@H](Cc1ccccc1)C(N)=O)C(C)C)C(C)C)C(C)C	Leishmania donovani				IC50	2.4 µM
oxadiargyl	Toxoplasma gondii	intracellular growth	wild type, Nluc reporter		IC50	20.7 ± 2.4 µM
Clc1cc(Br)ccc1-c1ccc(CNCC2CCNCC2)o1	Trypanosoma cruzi		Tulahuen C4 LacZ		IC50	1 µM
C=C(C)[C@H]1Cc2c(ccc3c2O[C@@H]2COc4cc(OC)c(OC)cc4[C@@H]2C3=O)O1	Plasmodium falciparum	parasite growth	3D7		IC50	27 µM
CC(=O)CCCC[C@@H](C)C(=O)N(C)[C@H](C(=O)N(C)[C@H](C(=O)N[C@H](C(=O)N(C)[C@@H](C)C(=O)N(C)[C@@H](Cc1ccccc1)C(N)=O)C(C)C)C(C)C)C(C)C	Leishmania donovani				IC50	> 13.5 µM
C=CCN(CC=C)CCc1c[nH]c2ccccc12	D(2) dopamine receptor (DRD2, Homo sapiens, UniProt P14416)	binding	cloned human receptor	with: [3H]N-methylspiperone	Ki	> 10 µM
CC(=O)N(O)CCCP(=O)(O)O	Plasmodium falciparum	parasite growth	3D7	range reported	IC50	0.09 to 0.35 µM
CCOc1cccc(C(=O)Nc2ccc(-c3nc4ccccc4[nH]3)cc2)c1	Trypanosoma cruzi		Tulahuen C4 LacZ		IC50	> 32 µM
C#CCCCCC(=O)N(C)[C@H](C(=O)N(C)[C@H](C(=O)N(C)[C@H](C(=O)N(C)[C@@H](C)C(=O)N(C)[C@@H](Cc1ccccc1)C(=O)OC)C(C)C)C(C)C)C(C)C	Leishmania donovani				IC50	> 14 µM
CCCCCN(C)CCC(O)(P(=O)(O)O)P(=O)(O)O	Plasmodium falciparum	parasite growth			IC50	> 70 µM
C[N+]1=C2C=C(NCCc3ccc(O)cc3)C(=O)c3[nH]cc(c32)CC1	Plasmodium falciparum	parasite growth	3D7, chloroquine-sensitive		IC50	< 0.05 µM
Cc1ccc(C(=O)c2oc3ccc4c(C)cc(=O)oc4c3c2C)cc1	Trypanosoma cruzi		Tulahuen C4 LacZ		IC50	> 32 µM
C=CCN(CC=C)CCc1c[nH]c2ccc(Br)cc12	D(4) dopamine receptor (DRD4, Homo sapiens, UniProt P21917)				Ki	> 10 µM

Some of these lines once more:
Substance	tested on	assay	system	setting	quantity	value
Clc1cc(Br)ccc1-c1ccc(CNCC2CCNCC2)o1	Trypanosoma cruzi		Tulahuen C4 LacZ		IC50	1 µM
